Assay results gathered from unrelated publications.
Each line is one published result; not all experiments were run side by side. Converted amounts (≈) assume the structure as drawn.
Organism: Candida albicans

COc1ccc(N2C(=O)C=CC2=O)cc1 gave a mRNA level of 0.18 fold (qRT-PCR, refers to: RAS1; 1 µg/mL, 12 h; relative to: untreated).
For CC(CCC(=O)[O-])C1CCC2C3C(O)CC4CC(O)CCC4(C)C3CCC12C.C[N+](C)(C)CC(O)CC(=O)O (stereo not shown), inhibition zone read “inactive” (TISTR 5554; 1 mg per disc, 18 to 24 h, 37 °C, 6 mm disc).
With CC[C@H](C)[C@H](NC(=O)[C@H](CCCNC(=N)N)NC(=O)[C@H](CCCNC(=N)N)NC(=O)[C@H](CCCCN)NC(=O)[C@H](CC(N)=O)NC(=O)[C@H](CS)NC(=O)[C@H](Cc1ccc(O)cc1)NC(=O)CNC(=O)CNC(=O)[C@H](CCCNC(=N)N)NC(=O)[C@H](CCCCN)NC(=O)[C@H](CCCNC(=N)N)NC(=O)[C@H](CCCCN)NC(=O)[C@H](CC(C)C)NC(=O)[C@H](CC(C)C)NC(=O)[C@H](CS)NC(=O)[C@H](Cc1c[nH]cn1)NC(=O)[C@H](C)NC(=O)[C@H](C)NC(=O)[C@H](CS)NC(=O)[C@H](C)NC(=O)[C@H](C)NC(=O)[C@H](Cc1c[nH]cn1)NC(=O)[C@H](CC(N)=O)NC(=O)[C@@H](NC(=O)[C@H](CCCCN)NC(=O)[C@@H](NC(=O)CNC(=O)[C@H](CCCCN)NC(=O)[C@H](C)NC(=O)[C@H](CCC(=O)O)NC(=O)[C@H](C)NC(=O)[C@H](CO)NC(=O)[C@H](CC(C)C)NC(=O)[C@H](CC(C)C)NC(=O)[C@H](CC(=O)O)NC(=O)[C@H](CS)NC(=O)[C@@H](NC(=O)[C@@H](N)C(C)C)[C@@H](C)O)C(C)C)C(C)C)C(=O)N[C@@H](CS)C(=O)N[C@H](C(=O)N[C@@H](CS)C(=O)N[C@@H](CCCNC(=N)N)C(=O)N[C@@H](CC(N)=O)C(N)=O)C(C)C the antifungal concentration was over 4.5 µg/mL (ATCC 90028).
The MIC50 of CC[C@@H](C)[C@@H](NC(=O)[C@@H](C)NC(=O)[C@@H](CCCCN)NC(=O)[C@@H](CC(C)C)NC(=O)[C@@H](C)NC(=O)[C@H](NC(=O)[C@@H](Cc1c[nH]cn1)NC(=O)[C@@H](CC(C)C)NC(=O)[C@H](NC(=O)[C@H](NC(=O)[C@@H](CCCCN)NC(=O)[C@@H](CCCCN)NC(=O)[C@@H](C)NC(=O)[C@@H](CO)NC(=O)[C@@H](CCCCN)NC(=O)[C@@H](Cc1ccccc1)NC(=O)[C@H](NC(=O)[C@@H](CCCCN)NC(=O)[C@@H](CC(C)C)NC(=O)[C@@H](Cc1ccccc1)NC(=O)[C@@H](CO)NC(=O)[C@@H](CCCCN)NC(=O)[C@@H](Cc1c[nH]c2ccccc12)NC(=O)[C@@H](CCCCN)NC(C)=O)[C@H](C)O)[C@H](C)O)C(C)C)[C@H](C)O)C(=O)N[C@H](CO)C(=O)N[C@H](CO)C(N)=O is reported as 50 µg/mL (≈ 16.7 µM) (ATCC 24433; 48 h, 30 °C).
CC(C)C[C@H](NC(=O)CNC(=O)[C@H](CCCCN)NC(=O)[C@@H](N)CC(C)C)C(=O)N[C@@H](C)C(=O)N[C@@H](C)C(=O)N[C@@H](CCCCN)C(=O)N[C@@H](CC(C)C)C(=O)N[C@@H](CC(C)C)C(=O)NCC(=O)N[C@@H](CC(C)C)C(=O)N[C@@H](CCCCN)C(=O)N[C@@H](CCCCN)C(=O)O gave a growth inhibition of 100% (ATCC 10231; 128 µM).
For [Ag+].[S-]c1ccccn1.c1ccc(P(c2ccccc2)c2ccccc2)cc1.c1ccc(P(c2ccccc2)c2ccccc2)cc1, “inhibition zone diameter” read 18 mm (MTCC 227, DMSO; 0.1 mL of 50 mg/mL in 8 mm well, 18 to 24 h).
CC(CCC(=O)[O-])C1CCC2C3CCC4CC(O)CCC4(C)C3CC(O)C12C.C[N+](C)(C)CC(O)CC(=O)O (stereo not shown): inhibition zone “inactive” (TISTR 5554; 1 mg per disc, 18 to 24 h, 37 °C, 6 mm disc).
For CC[C@H](C)[C@H](NC(=O)[C@@H]1CCCN1C(=O)[C@H](CCCNC(=N)N)NC(=O)[C@H](CC(=O)O)NC(=O)[C@H](CCCCN)NC(=S)Nc1ccc2c(c1)C(=O)OC21c2ccc(O)cc2Oc2cc(O)ccc21)C(=O)N[C@@H](Cc1ccccc1)C(=O)N[C@@H](CCC(N)=O)C(=O)N[C@@H](CC(C)C)C(=O)N[C@@H](CC(N)=O)C(=O)N[C@H](C(=O)N[C@@H](CO)C(=O)N[C@@H](Cc1ccc(O)cc1)C(=O)N[C@@H](Cc1c[nH]c2ccccc12)C(=O)N[C@@H](CCC(=O)O)C(=O)N[C@@H](CCSC)C(=O)NCC(=O)N[C@@H](C)C(=O)O)[C@@H](C)O, “duration of growth inhibition” read 24 h (10-fold MIC, 25 °C).
With CC(C)[C@@H](CC(=O)N[C@@H](CCCCN)CC(N)=O)NC(=O)[C@H]1CCCC[C@@H]1NC(=O)C[C@H](CCCCN)NC(=O)C[C@@H](NC(=O)[C@H]1CCCC[C@@H]1NC(=O)C[C@H](CCCCN)NC(=O)C[C@@H](NC(=O)[C@H]1CCCC[C@@H]1Nc1ccc([N+](=O)[O-])c2nonc12)C(C)C)C(C)C the MIC ratio was at most 2 (SC5314; relative to: NBD-labelled over unlabelled peptide).
CN1CC(=O)N=C1N.C[C@H](CCC(=O)O)[C@H]1CC[C@H]2[C@@H]3[C@@H](O)C[C@@H]4C[C@H](O)CC[C@]4(C)[C@H]3CC[C@]12C: inhibition zone “inactive” (TISTR 5554; 1 mg per disc, 18 to 24 h, 37 °C, 6 mm disc).

Some of these lines once more:
CN1CC(=O)N=C1N.C[C@H](CCC(=O)O)[C@H]1CC[C@H]2[C@@H]3[C@@H](O)C[C@@H]4C[C@H](O)CC[C@]4(C)[C@H]3CC[C@]12C: inhibition zone “inactive” (TISTR 5554; 1 mg per disc, 18 to 24 h, 37 °C, 6 mm disc).
